{"data": "Results collected from several papers", "note": "Parts stem from different laboratories: compare values within a part only."}
{"data": "Series 1", "target": "POU domain, class 5, transcription factor 1, POU domain (Pou5f1, Mus musculus, UniProt P20263, residues 131-289)", "technique": "Spec-seq", "form": "double-stranded DNA, one strand shown", "medium": "in vitro", "concentration": "not given", "setting": "whole probe, mean of replicates", "reference": "not given", "direction": "lower = stronger binding", "UniProt P20263, sequence (131-289, looked up)": "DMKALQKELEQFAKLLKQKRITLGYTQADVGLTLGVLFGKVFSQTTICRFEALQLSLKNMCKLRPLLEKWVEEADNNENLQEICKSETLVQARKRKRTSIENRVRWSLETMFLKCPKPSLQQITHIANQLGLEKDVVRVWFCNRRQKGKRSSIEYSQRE"}
{"Oligonucleotide": "GAGTCGTCTCGTCAGCACCTAGTAATCCGTAGAGCACTCAGGTC", "relative binding energy": "0.693 ln ratio"}
{"Oligonucleotide": "GAGTCGTCTCGTCAGCACATCTACATCCGTAGAGCACTCAGGTC", "relative binding energy": "-1.68 ln ratio"}
{"Oligonucleotide": "GAGTCGTCTCGTCAGCACATGCGAGTCCGTAGAGCACTCAGGTC", "relative binding energy": "0.362 ln ratio"}
{"data": "Series 2", "target": "RNA binding protein fox-1 homolog 2, RRM domain, GST-SBP tag (RBFOX2, Homo sapiens, UniProt O43251-10, residues 100-194)", "technique": "RNA Bind-n-Seq", "form": "RNA", "medium": "in vitro", "concentration": "365 nM", "setting": "natural RNA segment, single round, ends assumed", "reference": "no-protein control", "direction": "higher = stronger binding", "constant ends, left off below": "GGGAGUUCUACAGUCCGACGAUC … UGGAAUUCUCGGGUGCCAA", "Residues (chain)": "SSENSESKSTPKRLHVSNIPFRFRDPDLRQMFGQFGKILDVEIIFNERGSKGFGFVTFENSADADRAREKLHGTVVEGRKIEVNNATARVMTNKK"}
{"Oligonucleotide": "UGCUUUUGAUGUUGUGUUACUGUACACAGAAGUGUGUGCACUGAGGCUCUGCGUGUGGUCCGUAUGGAAAGCCUGGUAGCCCUGCGAGUUAAGUACUGCUUCCAUUCAUU", "RBNS enrichment (R)": 1.49}
{"Oligonucleotide": "AUUGAACAAAGACUACUAAUGACUUUGUUUGAAUUAUCCACAUGAAAAUAAAGAGCCAUAGUUUCAGCCUUGCUGUCUUCGUGUCUUACCCCUUCGUGGGGCUACACAUU", "RBNS enrichment (R)": 0.28}
{"Oligonucleotide": "CUCUGCUGCAUGGGACUGGGCCAGCCCAGCCCUCUGAAGUCUGGAGCGCCACAUGUUCCCUAUAAGGCCUGAAGCCCACAGCCCUGAAACAGUGGGGCCAGCUGCCCUGG", "RBNS enrichment (R)": 0.168}
{"Oligonucleotide": "GCUGAGGAGACUAAGUUAGCCAUGUGGGCAGUGAAGCAUGCCAAUGUGAUCAAUCCCUAGUAAAAGCCCUGGACACCUAGGCAUGGGUGAGCUACUCUGGUUGGUAAUAC", "RBNS enrichment (R)": 1.25}
{"Oligonucleotide": "AUGCUUUUUGUAUGUAUAUCACAUAGAGUAGGUUGGUUUCCUGAGUAAUUGGGAUUCCAACUAGAUAGUCAUUGGUGUGACCAUAAUAAAAACAAAAGCUAAAAUAAAAG", "RBNS enrichment (R)": 0.38}
{"data": "Series 3", "target": "Interferon regulatory factor 7, full length, phosphomimetic (IRF7, Homo sapiens, UniProt Q92985, residues 1-503, S101K/S471D/S472D/S475D/S476D/S477D/S483D/S484D/S487D)", "technique": "protein-binding microarray", "form": "double-stranded DNA, one strand shown", "medium": "in vitro", "concentration": "250 nM", "setting": "60-bp whole probe", "together with": "salmon DNA 0.4 mg/ml", "reference": "random background probes", "direction": "higher = stronger binding", "constant ends, left off below": "GCCTAGCAC … GTCTTGATTCGCTTGACGCTGCTG", "Target sequence (chain)": "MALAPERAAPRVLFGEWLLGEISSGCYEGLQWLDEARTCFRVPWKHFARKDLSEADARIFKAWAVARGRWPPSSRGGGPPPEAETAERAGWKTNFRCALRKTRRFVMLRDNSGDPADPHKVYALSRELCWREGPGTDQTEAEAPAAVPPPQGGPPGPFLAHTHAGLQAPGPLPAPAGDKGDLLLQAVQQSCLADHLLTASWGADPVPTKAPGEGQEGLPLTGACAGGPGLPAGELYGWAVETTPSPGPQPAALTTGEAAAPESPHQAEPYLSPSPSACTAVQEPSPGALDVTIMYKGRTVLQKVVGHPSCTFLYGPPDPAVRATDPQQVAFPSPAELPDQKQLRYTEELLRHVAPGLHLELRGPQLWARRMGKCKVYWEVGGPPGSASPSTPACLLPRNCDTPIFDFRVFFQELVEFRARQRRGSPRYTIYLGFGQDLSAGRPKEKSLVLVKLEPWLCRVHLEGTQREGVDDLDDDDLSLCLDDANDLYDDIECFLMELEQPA"}
{"Oligonucleotide": "TCAGTTCTGCTTTGCCTACTGTGCTAG", "log fluorescence": "1.92 z-score"}
{"Oligonucleotide": "TTAGATTTCGGGTTTCGTTTAGTGCTA", "log fluorescence": "8.63 z-score"}
{"Oligonucleotide": "TCATTTTAGCTTCTCAAACTGTGCTAG", "log fluorescence": "1.31 z-score"}
{"Oligonucleotide": "GACGATCTCAGTATCTAGACGTGCTAG", "log fluorescence": "-0.379 z-score"}
{"Oligonucleotide": "GACGGTTTCGGTGCCGGGACGTGCTAG", "log fluorescence": "3.2 z-score"}
{"data": "Other studies, line by line"}
{"Substance": "PhoQ, residues 284 288 289 292 302 303 SACGEM", "target": "PhoP, residues 12 14 15 18 19 LHATL (Escherichia coli, UniProt P23836)", "test": "Sort-seq, refers to: YFP reporter", "test system": "E. coli", "setting": "PhoQ-PhoP variant library, together with: 10 µM Mg2+", "scale": "reference: high Mg2+ state, higher = stronger signaling", "endpoint": "fold induction", "value": 24.3}
